# Assay results pooled from the literature.
# Each numbered part is a random draw from the data of one study; scales do not carry over between parts. Substitutions count along the parent as printed.

# Set 1 — method: competition protein-binding microarray; form: double-stranded DNA, one strand shown; sample: in vitro; tested at: 2 µM; with: Cbf1 competitor, 0.05 µM; reading: higher = stronger binding; constant ends, left off below: … GTCTTGATTCGCTTGACGCTGCTG
# Target: Phosphate system positive regulatory protein PHO4, full length, GST-tagged (PHO4, Saccharomyces cerevisiae, UniProt P07270, residues 1-312)
# Setting: whole 60-bp probe, lowest competitor level
# Construct (chain): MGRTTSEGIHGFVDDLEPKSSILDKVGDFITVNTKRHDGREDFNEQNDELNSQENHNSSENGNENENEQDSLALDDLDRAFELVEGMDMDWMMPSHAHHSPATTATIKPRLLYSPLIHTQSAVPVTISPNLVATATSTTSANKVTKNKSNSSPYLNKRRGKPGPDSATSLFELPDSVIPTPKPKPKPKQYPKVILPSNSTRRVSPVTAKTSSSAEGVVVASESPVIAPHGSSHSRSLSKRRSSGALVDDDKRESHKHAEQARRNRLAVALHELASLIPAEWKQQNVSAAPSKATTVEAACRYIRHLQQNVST
Sequence,fluorescence intensity
CTAACGAAGGTTTGAATAGTGGGTGACAAGCCAAGT,3540 a.u.
CGCCGGAAGCGGTGCCTCGTGGCTTGGGATCTCTCC,11300 a.u.
CATACCCAACCTTGTGCCGTGGGTGAAGATATTTGT,7420 a.u.
GTCTTGTCTCATTGTTGTGTGGGTGTCCCCACTTCA,5520 a.u.
AAAGCGGTAATTTTTCACGTGCGATCAAATATCTAT,13900 a.u.
GCGGTCGGTAAATTTTTCGTGGGTATCTTTGAATCT,3400 a.u.
GGTCGCACACACACCCCCGTGATGGGCGATATATAG,9820 a.u.
TGTGTCATTTCGACGTTCGTGATGGCAAAACGATGC,6800 a.u.
AGAAATTTTGGCCGCCATGTGGTCTTCTACAATTAT,10200 a.u.
CTTCCTTCTTTGAAACACGTTTCTTAATTGCACTTG,13300 a.u.
CTTCTGTAAATTTGATACGTGGGTGGACGCGCCCCG,6530 a.u.
GGAAAACCGCCCCATCACGCTGACCCCTTTGGCCCG,4960 a.u.

# Set 2 — method: RNA Bind-n-Seq; form: RNA; sample: in vitro; tested at: 365 nM; baseline: no-protein control; reading: higher = stronger binding
# Target: RNA binding protein fox-1 homolog 2, RRM domain, GST-SBP tag (RBFOX2, Homo sapiens, UniProt O43251-10, residues 100-194)
# Setting: natural RNA segment, single round, ends assumed
# Constant ends, left off below: GGGAGUUCUACAGUCCGACGAUC … UGGAAUUCUCGGGUGCCAA
Sequence,RBNS enrichment (R)
CUUCACAGACGAGAGACUGUUGUCUUUGGAUUUUUCCCUCCGACUUUACUCUGUGAUUUCAGGUUCUAACAACAUGGCCUGUCGUUUUAUUUUAAAAGUUCCUGCUGUUC,0.39
AUUGUAAAGAAGCGAUGCAACUUGUCAAAUAUUUAAUAAAGAAUUAUGGAAGCUGGAACAUUUUCUACAUCAAGUGUUAUGGGUUGUUUGAUUUAAAGCUUCUUUGUGAA,1.58
GUAUCUAUUCAGUUUGUUCUUACUAACUUCUGGUCUUUUAAAAGACGUCAACGGAGGAACCUCGGUUCUUCAACACAAGCUUUGUAUGUAAGCCGAGAGAAAAGUCAUGU,0.417
UGUGCCUUCUCUGGAUCCCUCCCUAGCCUGUGCCCCGAGCCGUCCAUAGAGAGUUUGUAGGUAUUUCCAGGGAUGGAGAAGAUCUAAGCAUUUGACUUCCCCAUCAGUAC,3.46
CUCAGUAGCAGGACCUGCCCCGAGCCCCCUGCUCCUUGCCCCUCUGUGAGGAGUUACGGAGAGGGCUUUGUCUCUAGAGCAGAAGAGAAUGAUGGGACGGCCUGAUGCUG,1.73
CCCAGGAACUCGGAGACUGGCACAGCUGCUUUGUCUGCCAGUGCCGUGUGUUGUCAUGUCACUCACCCCAAGCACCUGCUGGCUGCUGGAAGCAUACCCCAAGACCCCAA,0.438
UUUCGGCUAGAGCCACCAUACUAGCAGUGACCUGUUAGGCUGCAGAGAGAAGGUGUGUCUGUGGUUCAGGAACAAGCUGUACAUUUUUCACCCUGACUAUGGGACGGAAA,0.48
UGUUGUUUAGAAAUUUGCAAGGGCUUUUUUUCAGCAAUGCCACCAGCAGAUUAUAAUCUUGUCAACAGUUCAUUGUCUCCUCUUAGUACCACCAGUCACCUGCAUCAUUC,4.36

# Set 3 — target: CCNE2, cyclin fold, Cln2 fusion (human); method: yeast growth competition, sequencing; sample: yeast; setting: weak parent motif; baseline: not given; reading: higher = stronger binding
# Starting sequence: SLBP docking peptide (human); ARYKRKLLINDFG; partner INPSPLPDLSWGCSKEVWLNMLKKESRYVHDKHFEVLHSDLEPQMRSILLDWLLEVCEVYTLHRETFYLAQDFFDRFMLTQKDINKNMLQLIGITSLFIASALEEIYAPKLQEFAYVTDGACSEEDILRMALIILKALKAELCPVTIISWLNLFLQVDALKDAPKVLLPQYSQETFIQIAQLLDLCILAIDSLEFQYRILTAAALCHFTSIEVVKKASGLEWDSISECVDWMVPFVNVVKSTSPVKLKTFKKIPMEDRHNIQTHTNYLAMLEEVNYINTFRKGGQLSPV
Substitution,normalised enrichment score
A1D,0.759
K6E,0.617
F12I,0.244
D11M,1.83
R5C,1
R5P,0.446
Y3M,1.44
F12Q,0.297
N10F,1.33
L7W,-0.412
R5T,0.485
Y3S,1.62
K6I,0.628

# Set 4 — method: RNA Bind-n-Seq; form: RNA; sample: in vitro; tested at: 1 µM; setting: whole 134-nt RNA, ends assumed; with: 150 mM KCl; baseline: input library; reading: higher = stronger binding
# Target: Ras GTPase-activating protein-binding protein 1, RRM domain (G3BP1, Homo sapiens, UniProt Q13283)
# Chain of UniProt Q13283 (whole entry, looked up): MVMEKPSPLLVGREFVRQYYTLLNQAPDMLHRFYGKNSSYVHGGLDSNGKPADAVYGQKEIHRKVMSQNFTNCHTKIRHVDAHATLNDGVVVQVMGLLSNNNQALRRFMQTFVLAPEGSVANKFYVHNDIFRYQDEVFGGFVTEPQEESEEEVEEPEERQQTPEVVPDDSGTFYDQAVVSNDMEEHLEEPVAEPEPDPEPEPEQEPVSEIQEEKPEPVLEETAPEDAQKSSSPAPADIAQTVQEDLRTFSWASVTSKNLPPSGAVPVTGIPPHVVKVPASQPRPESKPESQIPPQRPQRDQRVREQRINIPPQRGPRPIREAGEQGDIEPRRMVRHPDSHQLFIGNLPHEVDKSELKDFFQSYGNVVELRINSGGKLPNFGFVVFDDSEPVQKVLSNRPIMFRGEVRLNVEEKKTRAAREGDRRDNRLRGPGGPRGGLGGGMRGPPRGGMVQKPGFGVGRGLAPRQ
# Constant ends, left off below: GGGAGUUCUACAGUCCGACGAUC … UGGAAUUCUCGGGUGUCAAGG
Sequence,log2 enrichment
CAAGUCCUGUGCUACACAUCGUAUGUACCGAAUCGGUUUUUGGUUUUUUUGGUGGAAAGUAUUAUGUUACGCCGUUCGGAUCUGCACUUC,-0.332
UAACUUUAGAAGAGGAUCUGAUGGAUAUGGCAGUGGACGUGGAUUUGGGGAUGGCUAUAAUGGGUAUGGAGGAGGACCUGGAGGUGGCAA,-0.787
UCCUGUGCUACACAUCGUAUGUACCGAAUCGGGUUUUUUUGGGAAAAAGGGUUUUUGGGAAAGUAUUAUGUUACGCCGUUCGGAUCUGCA,-0.245
CCUGUGCUACACAUCGUAUGUACCGAAUCGGGGUUUUUGGGGUUUUUGGGGUUUUUGGGGAAAGUAUUAUGUUACGCCGUUCGGAUCUGC,1.01
ACCAUGCAGGUGGGCAUCUUUGGGAAGUGGGGCAAGGGGGGGAUAGAAAGGGGGGUAACACUUUGGGAACAGGUGGUCCCAGGUCGUUUC,-0.263
AAGUCCUGUGCUACACAUCGUAUGUACCGAAUCGGUUUUUGGAAAGGAAAAAAAGGAAAGUAUUAUGUUACGCCGUUCGGAUCUGCACUU,-0.0731
CCUGUGCUACACAUCGUAUGUACCGAAUCGGGGAAAGGGGUUUUUUUGGGGAAAAAGGGGAAAGUAUUAUGUUACGCCGUUCGGAUCUGC,0.522

# Excerpt of the above (set 2):
Sequence,RBNS enrichment (R)
CUCAGUAGCAGGACCUGCCCCGAGCCCCCUGCUCCUUGCCCCUCUGUGAGGAGUUACGGAGAGGGCUUUGUCUCUAGAGCAGAAGAGAAUGAUGGGACGGCCUGAUGCUG,1.73
CCCAGGAACUCGGAGACUGGCACAGCUGCUUUGUCUGCCAGUGCCGUGUGUUGUCAUGUCACUCACCCCAAGCACCUGCUGGCUGCUGGAAGCAUACCCCAAGACCCCAA,0.438
UUUCGGCUAGAGCCACCAUACUAGCAGUGACCUGUUAGGCUGCAGAGAGAAGGUGUGUCUGUGGUUCAGGAACAAGCUGUACAUUUUUCACCCUGACUAUGGGACGGAAA,0.48
UGUUGUUUAGAAAUUUGCAAGGGCUUUUUUUCAGCAAUGCCACCAGCAGAUUAUAAUCUUGUCAACAGUUCAUUGUCUCCUCUUAGUACCACCAGUCACCUGCAUCAUUC,4.36
